# Assay results from different studies.
# Compare with care: the assays were run in different laboratories. “And” joins repeats or separate records; there may be more than shown.
# Target: Cytochrome P450 3A4 (CYP3A4, Homo sapiens, UniProt P08684)
# Chain of UniProt P08684 (whole entry, looked up): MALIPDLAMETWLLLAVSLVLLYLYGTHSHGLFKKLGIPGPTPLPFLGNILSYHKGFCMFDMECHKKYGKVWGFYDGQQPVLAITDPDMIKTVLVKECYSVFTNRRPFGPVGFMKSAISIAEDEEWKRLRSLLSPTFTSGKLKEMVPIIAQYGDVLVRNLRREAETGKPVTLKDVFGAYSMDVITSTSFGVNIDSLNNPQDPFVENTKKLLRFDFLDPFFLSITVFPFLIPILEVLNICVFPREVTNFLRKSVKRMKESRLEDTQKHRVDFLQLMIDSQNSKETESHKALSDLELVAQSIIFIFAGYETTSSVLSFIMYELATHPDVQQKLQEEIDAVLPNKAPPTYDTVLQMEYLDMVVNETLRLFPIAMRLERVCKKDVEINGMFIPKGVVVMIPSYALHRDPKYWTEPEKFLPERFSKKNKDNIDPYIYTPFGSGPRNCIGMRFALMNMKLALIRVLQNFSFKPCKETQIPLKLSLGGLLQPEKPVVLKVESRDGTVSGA
Structure (SMILES),assay,system,conditions,scale,quantity,value
O=c1[nH]ncn1-c1ccc(N2CCN(c3ccc(OCC4COC(Cn5cncn5)(c5ccc(Cl)cc5Cl)O4)cc3)CC2)cc1 (stereo not shown),inhibitor,human liver microsomes,added: testosterone,,IC50,0.0168 µM
N#C[C@H](C[C@@H]1CCCNC1=O)NC(=O)[C@H](CC1CC1)NC(=O)c1cc2cccc(Cl)c2[nH]1,NADPH metabolic stability,,"2 µM, pH 7.4",,half-life,0.89 min
OCc1ccc(-c2nn(Cc3ccccc3)c3ccccc23)o1,substrate,recombinant human enzyme,,,half-life,2.9 min
Cc1cc(Nc2ncnc3ccc(NC4=NC(C)(C)CO4)cc23)ccc1Oc1ccn2ncnc2c1,,"healthy volunteers, plasma","oral, 300 mg, day 1, single dose alone",,"%AUCextrap, median",0.968%
CCC(C)n1ncn(-c2ccc(N3CCN(c4ccc(OCC5COC(Cn6cncn6)(c6ccc(Cl)cc6Cl)O5)cc4)CC3)cc2)c1=O (stereo not shown),,"human, both sexes, plasma","oral, 200 mg, multiple doses, added: pirtobrutinib",,AUC,6320 ng·h/mL
Cn1cncc1[C@@](N)(c1ccc(Cl)cc1)c1ccc2c(c1)c(-c1cccc(Cl)c1)cc(=O)n2C,reaction phenotyping,human liver microsomes,,,fraction metabolised by CYP3A4,~36% and 36.4%
CC[C@H]1[C@@H](O)[C@@H]2[C@H](CC[C@]3(C)[C@@H]([C@H](C)CCNC(=O)NS(=O)(=O)c4ccc(C(C)(C)C)cc4)CC[C@@H]23)[C@@]2(C)CC[C@@H](O)C[C@@H]12,,"human, plasma","dose not given, geometric mean, added: fluconazole",,AUC(0-t),1490 ng·h/mL
CCCCC1=NC2(CCCC2)C(=O)N1Cc1ccc(-c2ccccc2S(=O)(=O)Nc2noc(C)c2C)c(COCC)c1,substrate,"human male, plasma","oral, dose not given, added: itraconazole",reference: with over without itraconazole,AUC ratio,2.74
Nc1ccc(S(=O)(=O)Nc2ccnn2-c2ccccc2)cc1,"enzyme activity, inhibitor",,10 µM,,inhibition,-20%
Cc1cc(Nc2ncnc3ccc(NC4=NC(C)(CO)CO4)cc23)ccc1Oc1ccn2ncnc2c1 (stereo not shown),,"human, plasma","oral, 300 mg tucatinib single dose, day 1, tucatinib alone",,Cmax (arithmetic mean),65.3 ng/mL
CCCCCCCC/C=C1\C=C(C(F)(F)F)c2cc(O)c(O)cc21,"enzyme activity, inhibitor",pooled human liver microsomes,"concentration not given, 30 min, 37 °C, added: midazolam",,inhibition,no inhibition
C=C(F)C(=O)N1CCN(c2nc(OC[C@@H]3CCCN3C)nc3c2CCN(c2cccc4cccc(Cl)c24)C3)C[C@@H]1CC#N,,"healthy volunteers, plasma","200 mg, alone, geometric mean",,Cmax,85.6 ng/mL
C=CC(=O)Nc1cc(Nc2nccc(-c3cn(C)c4ccccc34)n2)c(OCC(F)(F)F)nc1N(C)CCNC,"substrate, recombinant enzyme",,,,formation clearance,4.73 µL/min/pmol
COc1ccc(F)cc1C(=O)NCc1ccc(-c2nn([C@@H](C)C(F)(F)F)c(N)c2C(N)=O)cc1,,"human, both sexes, plasma","oral, dose not given, added: rifampin 600 mg once daily",reference: without rifampin,AUC decrease,71%
Nc1ncnc2c1c(-c1ccc(Oc3ccccc3)cc1)nn2[C@@H]1CCCN(C(=O)C(O)CO)C1 (stereo partly shown),,human patients,"dose not given, CYP3A4 *1/*22 carriers",reference: other genotypes,AUC,increased
CC[C@H](C)[C@@H]([C@@H](CC(=O)N1CCC[C@H]1[C@H](OC)[C@@H](C)C(=O)N[C@@H](Cc1ccccc1)C(=O)NCCCO)OC)N(C)C(=O)[C@@H](NC(=O)[C@H](C(C)C)N(C)C)C(C)C,recombinant CYP3A4,,1 µM,,CLint,0.3 µL/min/pmol
C[C@@H](Oc1ccc(S(C)(=O)=O)cc1C(=O)N1C[C@@H]2C[C@]2(c2cc(C(F)(F)F)on2)C1)C(F)(F)F,"recombinant CYP, average",,,,CYP contribution,96.4%
CO[C@]1(C(=O)N[C@@H](C)c2ccc(-n3cc(F)cn3)nc2)CC[C@H](c2nc(C)cc(Nc3cc(C)[nH]n3)n2)CC1,"time-dependent inactivation, inactivator",human liver microsomes,,,kinact,0.002 s⁻¹
CNC(=O)NC1CCC(CCN2CCN(c3cccc(Cl)c3Cl)CC2)CC1 (stereo not shown),,human,"oral, dose not given, outlier subject excluded, added: erythromycin",reference: compound alone,Cmax increase,13%
CN(C(=O)n1cnc(-c2ccc[n+]([O-])c2)c1)C1CCCCC1,inhibitor,pooled human liver microsomes,0.1 to 30 µg/mL,reference: control,remaining activity,86.6%
C=CC(=O)Nc1cc(Nc2nccc(-c3cn(C)c4ccccc34)n2)c(OCC(F)(F)F)nc1N(C)CCN(C)C,"substrate, recombinant enzyme, substrate depletion",,,,fraction metabolised,80.2%
CSc1ccccc1C(=O)NCCn1cc(C(=O)NCc2cccc(C)n2)c(=O)c2cc3c(cc21)OC(F)(F)O3,"enzyme activity, inhibitor",human liver microsomes,"20 min, no NADPH preincubation, added: testosterone 50 µM",,IC50,53.5 µM
C=CC(=O)N(C)CCOc1c(N)ncnc1-c1cc(F)cc(NC(=O)c2ccc(C3CC3)cc2F)c1C,,,,,fraction metabolised by CYP3A4,97.8%
CSc1ccccc1C(=O)NCCn1cc(C(=O)NCc2cccc(C)n2)c(=O)c2cc3c(cc21)OCO3,"enzyme activity, inhibitor",human liver microsomes,"20 min, 30 min NADPH preincubation, added: testosterone 50 µM",,IC50,6.71 µM
NC(=O)NC1CCC(CCN2CCN(c3cccc(Cl)c3Cl)CC2)CC1 (stereo not shown),,human,"oral, dose not given, outlier subject excluded, added: erythromycin",reference: compound alone,Cmax increase,55%

# For quick reference, copied from above:
Structure (SMILES),assay,system,conditions,scale,quantity,value
CCCCCCCC/C=C1\C=C(C(F)(F)F)c2cc(O)c(O)cc21,"enzyme activity, inhibitor",pooled human liver microsomes,"concentration not given, 30 min, 37 °C, added: midazolam",,inhibition,no inhibition
C=C(F)C(=O)N1CCN(c2nc(OC[C@@H]3CCCN3C)nc3c2CCN(c2cccc4cccc(Cl)c24)C3)C[C@@H]1CC#N,,"healthy volunteers, plasma","200 mg, alone, geometric mean",,Cmax,85.6 ng/mL
C=CC(=O)Nc1cc(Nc2nccc(-c3cn(C)c4ccccc34)n2)c(OCC(F)(F)F)nc1N(C)CCNC,"substrate, recombinant enzyme",,,,formation clearance,4.73 µL/min/pmol
